Results pooled from the literature.
Numbered parts are unrelated; each lists some results of a single study. Changes are numbered by the printed parent chain.

Study 1
Target: Interferon regulatory factor 5, full length, phosphomimetic (IRF5, Homo sapiens, UniProt Q13568-2, residues 1-514, K96S/S451D/S453D/S456D/S462D)
Technique: protein-binding microarray
Molecule type: double-stranded DNA, one strand shown
Medium: in vitro
Tested at: 250 nM
Notes: 60-bp whole probe
Together with: salmon DNA 0.4 mg/ml
Baseline: random background probes
Direction: higher = stronger binding
Measurement: log fluorescence
Shared flanks, not repeated: GCCTAGCAC … GTCTTGATTCGCTTGACGCTGCTG
TCATATATAATATATATTACTGTGCTA: 0.99 z-score
GTCTGTTTGGGTCTTGTCTGGTGCTAG: 0.0414 z-score
TCAACACTAATTTTTACACTGTGCTAG: 0.823 z-score
GACGATTTCAGACTGGATACGTGCTAG: 0.0697 z-score
TCAGGTTTCCTTATCCTTTAGTGCTAG: 1.04 z-score
GACGAACTGAGTATGGAGACGTGCTAG: -0.535 z-score
TTAGCTCTCAGTCTCGATTAGTGCTAG: 0.927 z-score
TTAGGTATAGGTTTCGGTTAGTGCTAG: 8.55 z-score
TTAGGACTGGGTCTCAGTTAGTGCTAG: -0.444 z-score
CTAGTTCTGCTTTGCCTTCAGTGCTAG: 0.336 z-score
GACGAACTGGGGTTTCGAGAAGTGCTA: 1.1 z-score
TTAGGTCTCCTTTTGCTTTAGTGCTAG: 0.208 z-score
TTAGGACAGGACTATCGGTTAGTGCTA: 6.29 z-score
GACGGACTGGGTACCGGGACGTGCTAG: -0.513 z-score
TTAGTTTTCCTACTGCTTTAGTGCTAG: 1.31 z-score
TTAGGTTTTGGACTGGGTTAGTGCTAG: 0.227 z-score
GACGGTATCGCGACTGGGGACGTGCTA: -0.0331 z-score
GACGATTTCAGTCTCAAGACGTGCTAG: 1.19 z-score
TCATATATTATATATACAACTGTGCTA: 1 z-score

Study 2
Target: CCNB2, cyclin fold, Cln2 fusion (human)
Technique: yeast growth competition, sequencing
Medium: yeast
Notes: weak parent motif
Baseline: not given
Direction: higher = stronger binding
Measurement: normalised enrichment score
Starting sequence: RB1 docking peptide (human); PKPLKKLRFDIEG; partner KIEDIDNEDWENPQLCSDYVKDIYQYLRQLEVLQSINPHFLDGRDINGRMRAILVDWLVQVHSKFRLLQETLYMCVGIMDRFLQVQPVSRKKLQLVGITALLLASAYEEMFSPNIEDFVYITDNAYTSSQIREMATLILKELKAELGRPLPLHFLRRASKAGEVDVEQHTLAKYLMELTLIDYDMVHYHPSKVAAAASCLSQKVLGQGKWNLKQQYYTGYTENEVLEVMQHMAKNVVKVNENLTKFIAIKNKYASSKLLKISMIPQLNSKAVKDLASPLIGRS
L4R: 0.262
D10A: 0.776
G13Y: -0.146
D10C: 0.308
L4D: 1.16
P3A: 0.607
I11G: 0.394
R8L: -0.025
K2C: 0.475
K5L: -0.277
D10L: 0.363
K6Y: 0.164
K6L: 0.0683
L7T: -0.055
D10E: -0.409
D10M: 0.823
K5A L7A: 0.281
K5H: 0.421
L7D: -0.537
R8Q: -0.294
I11H: 0.577
K5I: 0.365
D10N: 0.341
P3K: 0.451
P3V: 0.0525

Study 3
Target: RNA binding protein fox-1 homolog 2, RRM domain, GST-SBP tag (RBFOX2, Homo sapiens, UniProt O43251-10, residues 100-194)
Technique: RNA Bind-n-Seq
Molecule type: RNA
Medium: in vitro
Tested at: 365 nM
Notes: natural RNA segment, single round, ends assumed
Baseline: no-protein control
Direction: higher = stronger binding
Measurement: RBNS enrichment (R)
Target sequence (chain): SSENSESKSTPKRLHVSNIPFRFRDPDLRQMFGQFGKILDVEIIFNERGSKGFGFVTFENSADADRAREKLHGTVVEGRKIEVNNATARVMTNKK
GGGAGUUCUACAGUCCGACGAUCAGCUGCAGUCCCCAGGCCAUGAGCCUCCCGGGAAUGUUUAAUAAAGGGCCUGGCCAACUCUCCUCACUGUGUGGGGUGGUCUGUGAAAGAGUGAGAGGAGAGCAUCUCUGUGGAAUUCUCGGGUGCCAA: 3.07
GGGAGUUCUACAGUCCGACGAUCAUGACAAUGACAAGGAAAGCGAUGUGGAGAUUUAAGAGUGGCUUGGGAUGCUGUGUCCCAAGGAAUUUCUUUUCACCUCUUGGUUGGGCUGGAGGGAAAAGGAGUGGCUCUGGAAUUCUCGGGUGCCAA: 0.747
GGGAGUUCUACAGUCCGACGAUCAAGUUUAUGUGGUACAGACAUGCCCUUGAGGUUGGUGGAAAAUAAAAAACAAGACCCUUCACACAGUUAGCUCAGGCCAUUUUAAGGACGAAGGCUCUGCUGGUCCUCCUUGGAAUUCUCGGGUGCCAA: 0.218
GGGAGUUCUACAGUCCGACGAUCCAGUGUCAAUGUCAUUGUUAACUAUAUUUCAUAUUUGAGGUCUCAUUGUUUUCAAAUAAACAGUGUUUUCCAUGACUGAGAUAUUUAUUUUUGGGAAAGCAACGAGGUAAUGGAAUUCUCGGGUGCCAA: 0.414
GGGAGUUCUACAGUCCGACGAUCAAAAUAAUCAGUAUGGUUUAUAUGUUGAAUUUGACAUUUGUGUGUAAUUUCAUGGUGGCCUAGUGUUGUGGUGCUUCUGGUAAUGGUAAUAGAAGCUCAACUAUUUUUUUUGGAAUUCUCGGGUGCCAA: 1.05
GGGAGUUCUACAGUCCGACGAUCAUGGAACAUUGUUUUGAGAUCAAACUCCCCACCCUCACAAAAAUGGCCACGUUGCAAUAAAAAUUGUGGCAUAUUACAGAACGUUGCCUUGUUUUCCUUGGAAAUUUUGCUGGAAUUCUCGGGUGCCAA: 0.74
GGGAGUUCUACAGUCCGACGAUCACCAUAGUGCUCAGCAACCACAACCCUGUCUUUCCAACACGGCCCUAGCGUAAGCACUGAGGCAGUGUGCAGUGCUCAGGCAGCAGCAAACAUUUCCCGGGGGUGGUUUUUGGAAUUCUCGGGUGCCAA: 0.32
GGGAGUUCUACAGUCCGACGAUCGACAGGGAGCUAGAGCCAAGCCCUAGGCUUGAGAGACACCUGCAUCUAUAAUCCCCGCCAAGGAUGCCCACUCACCUCUCUCAUCUGAUCCUCACUCUUUGUGGAAGGGAUGGAAUUCUCGGGUGCCAA: 0.329

Study 4
Target: Fragile X messenger ribonucleoprotein 1, C-terminal low-complexity region (Fmr1, Mus musculus, UniProt P35922)
Technique: RNA Bind-n-Seq
Molecule type: RNA
Medium: in vitro
Tested at: 200 nM
Notes: whole 134-nt RNA, ends assumed
Together with: 150 mM LiCl
Baseline: input library
Direction: higher = stronger binding
Measurement: log2 enrichment
All molecules: 7-deaza-guanosine replaces G
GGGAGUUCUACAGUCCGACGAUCUGGCCCUGGUGGUAUGCGGGGAGGAAGAGGUGGCCUCAUGGAUCGUGGUGGUCCCGGUGGAAUGUUCAGAGGUGGCCGUGGUGGAGACAGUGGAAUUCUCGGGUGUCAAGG: 0.787
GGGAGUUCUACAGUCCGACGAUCUAACUUUAGAGGAGGAUCUGAUGGAUAUGGCAGUGGACGUGGAUUUGGGGAUGGCUAUAAUGGGUAUGGAGGAGGACAUGGAGGUGGCAAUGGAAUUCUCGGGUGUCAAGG: 0.682
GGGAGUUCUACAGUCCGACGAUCUCCCCAGGGCCUGGCCUACUCAAUCUCUCCCACCUCAUCCUCUGGCAUGGACGCAGUCAGGGAGUCUGCUCCAAGCAGACACUGGUGGUCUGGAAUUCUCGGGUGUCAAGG: 0.322
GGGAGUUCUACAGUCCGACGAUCUGGCCCUGGUGGCAUGCGGGGAGGAAGAGGUGGCCUCAUGGAUCGUGGUAGUCCCGGUGGAAUGUUCAGAGGUGGCCGUGGUGGAGACAGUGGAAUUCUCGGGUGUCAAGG: 0.789
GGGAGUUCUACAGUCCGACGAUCGCAGGAAGUAAAAACAAAUGGAAAUGCUUCGGAUAGUGGCAGGGGUGGGGGUUGCUAAGGAAAGAGUGGGAUGGGAGUGGGUAAAGAGUUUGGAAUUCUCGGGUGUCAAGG: 1.51
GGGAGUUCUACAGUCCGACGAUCCUCAAGUCCUGUGCUACACAUCGUAUGUACCGAAUCGGGAGGGAGGGUUUGGGAAAGUAUUAUGUUACGCCGUUCGGAUCUGCACUUCCAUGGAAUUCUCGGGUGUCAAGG: -0.613
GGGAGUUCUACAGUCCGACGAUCGCAGGAAGUAAAAACAAAUGGAAAUGCUUCGGAUAGUGGCAGGGGUAGGGGUUGCUAAGGAAAGGGUGGGAUGGGAGUGGGUAAAGAGUUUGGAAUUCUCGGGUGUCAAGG: 1.69
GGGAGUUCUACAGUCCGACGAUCCACAGACAACACGCACCUACACAGACACAGAGGGAAGGGGUUGGGAUGGGGACAGGGUGCACAGCAGGGCGGGGUAGGACCCCAGCCCCUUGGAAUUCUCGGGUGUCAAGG: 0.733

For quick reference, copied from above (study 2):
L7D: -0.537
L7T: -0.055
D10L: 0.363
D10M: 0.823
K6Y: 0.164
G13Y: -0.146
P3V: 0.0525
K5A L7A: 0.281
